Results pooled from the literature.
A part holds a random share of what one study measured. Changes are numbered by the printed parent chain.
Sequence of UniProt Q9H3N8 (whole entry, looked up): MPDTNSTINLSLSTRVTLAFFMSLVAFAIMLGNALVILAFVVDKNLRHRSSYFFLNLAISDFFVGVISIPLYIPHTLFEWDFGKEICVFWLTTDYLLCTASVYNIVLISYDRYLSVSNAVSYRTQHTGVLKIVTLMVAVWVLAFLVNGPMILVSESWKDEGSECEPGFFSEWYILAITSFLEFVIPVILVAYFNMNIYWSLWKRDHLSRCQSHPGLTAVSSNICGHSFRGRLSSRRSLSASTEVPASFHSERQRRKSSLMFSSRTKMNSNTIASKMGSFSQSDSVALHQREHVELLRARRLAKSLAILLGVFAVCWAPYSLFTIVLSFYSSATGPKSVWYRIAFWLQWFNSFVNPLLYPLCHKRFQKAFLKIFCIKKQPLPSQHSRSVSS
Sequence of UniProt P35367 (whole entry, looked up): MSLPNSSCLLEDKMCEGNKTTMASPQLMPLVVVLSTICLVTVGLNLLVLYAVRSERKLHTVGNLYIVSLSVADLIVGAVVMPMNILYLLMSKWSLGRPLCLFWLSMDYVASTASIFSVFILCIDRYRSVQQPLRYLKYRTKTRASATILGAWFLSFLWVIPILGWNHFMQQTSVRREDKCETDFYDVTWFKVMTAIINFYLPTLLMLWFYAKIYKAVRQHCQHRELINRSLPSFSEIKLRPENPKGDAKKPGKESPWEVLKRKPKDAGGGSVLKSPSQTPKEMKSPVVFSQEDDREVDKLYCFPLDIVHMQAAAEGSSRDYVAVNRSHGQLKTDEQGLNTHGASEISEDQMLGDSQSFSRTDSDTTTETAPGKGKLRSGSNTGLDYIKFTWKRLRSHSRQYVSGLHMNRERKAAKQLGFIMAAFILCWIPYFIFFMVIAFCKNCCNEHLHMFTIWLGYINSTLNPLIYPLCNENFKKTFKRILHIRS
Sequence of UniProt P25100 (whole entry, looked up): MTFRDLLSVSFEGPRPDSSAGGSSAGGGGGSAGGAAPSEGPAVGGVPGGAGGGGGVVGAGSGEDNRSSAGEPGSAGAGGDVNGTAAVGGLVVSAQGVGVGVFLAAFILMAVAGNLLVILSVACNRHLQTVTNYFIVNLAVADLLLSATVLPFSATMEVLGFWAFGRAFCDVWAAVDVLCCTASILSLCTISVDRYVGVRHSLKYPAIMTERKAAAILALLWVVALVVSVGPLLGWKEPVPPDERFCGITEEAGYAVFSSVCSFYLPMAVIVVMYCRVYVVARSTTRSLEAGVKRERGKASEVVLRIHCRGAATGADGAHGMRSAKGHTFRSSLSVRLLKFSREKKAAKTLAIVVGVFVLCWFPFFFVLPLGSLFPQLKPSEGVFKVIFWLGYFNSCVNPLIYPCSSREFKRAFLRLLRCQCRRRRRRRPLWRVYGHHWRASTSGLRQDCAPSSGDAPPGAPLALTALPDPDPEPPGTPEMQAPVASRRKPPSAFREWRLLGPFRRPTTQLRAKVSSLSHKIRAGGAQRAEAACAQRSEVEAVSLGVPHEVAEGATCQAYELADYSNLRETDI
Sequence of UniProt P18825 (whole entry, looked up): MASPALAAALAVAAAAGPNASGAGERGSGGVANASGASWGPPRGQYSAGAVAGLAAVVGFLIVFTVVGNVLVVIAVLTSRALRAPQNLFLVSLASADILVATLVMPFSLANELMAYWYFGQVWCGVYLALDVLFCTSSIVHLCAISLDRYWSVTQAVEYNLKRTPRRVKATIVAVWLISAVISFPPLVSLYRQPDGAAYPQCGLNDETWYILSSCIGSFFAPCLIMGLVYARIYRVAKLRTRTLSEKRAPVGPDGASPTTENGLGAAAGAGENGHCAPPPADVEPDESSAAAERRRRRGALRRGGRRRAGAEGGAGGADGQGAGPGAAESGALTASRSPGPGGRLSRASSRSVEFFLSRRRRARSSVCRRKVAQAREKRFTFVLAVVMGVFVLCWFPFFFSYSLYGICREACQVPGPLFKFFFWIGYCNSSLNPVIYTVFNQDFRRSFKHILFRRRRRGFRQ

Set 1 — target: CCND2, cyclin fold, Cln2 fusion (human); method: yeast growth competition, sequencing; sample: yeast; notes: weak parent motif; baseline: not given; direction: higher = stronger binding; measurement: normalised enrichment score
Starting sequence: viral docking peptide; PTARRRLLHDLDT; partner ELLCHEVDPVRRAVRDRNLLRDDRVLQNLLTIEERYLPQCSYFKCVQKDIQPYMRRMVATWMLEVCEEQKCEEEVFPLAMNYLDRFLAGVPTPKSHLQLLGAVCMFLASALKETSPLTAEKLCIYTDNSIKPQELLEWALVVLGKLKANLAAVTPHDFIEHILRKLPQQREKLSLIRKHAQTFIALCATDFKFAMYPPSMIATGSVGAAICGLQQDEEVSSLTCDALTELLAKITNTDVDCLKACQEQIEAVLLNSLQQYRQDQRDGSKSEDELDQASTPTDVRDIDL
PTARRRLLHDLDA [T13A]: 0.104
PTARKRLFHDLDT [R5K L8F]: 0.0874
PTARRRLAHDLDT [L8A]: -0.345
PTARKRLLHDLDT [R5K]: -0.267
PTARRRALHDLDT [L7A]: -0.0382
PAARRRLLHDLDT [T2A]: 0.0424
PTARRRLLADLDT [H9A]: 0.321
PTARRRLLHDADT [L11A]: 0.133

Set 2 — target: chymotrypsin; effect on: enzyme activity; mode: inhibitor; tested at: 10 µM; notes: with DTT; measurement: inhibition
CN1CCN(C(=O)c2ccc(-c3ccc4c(C=O)c(O)ccc4c3)s2)CC1: 9.7%
Cc1ccc(C)c(-n2sc3cc(F)ccc3c2=O)c1: -0.5%
C[C@@H](CN1CC(=O)NC(=O)C1)N1CC(=O)NC(=O)C1: 3.5%

Set 3 — effect on: binding; method: radioligand binding; tested at: 10 µM; measurement: inhibition
Structure (SMILES): Cn1cncc1[C@](O)(COc1ccc(C#N)cc1-c1ccc(OC(F)(F)F)cc1)c1ccc(C#N)cc1
Histamine H4 receptor (HRH4, Homo sapiens, UniProt Q9H3N8): -6.36%
Alpha-1D adrenergic receptor (ADRA1D, Homo sapiens, UniProt P25100): -8.65%
Histamine H1 receptor (HRH1, Homo sapiens, UniProt P35367): 88.7%
Alpha-2C adrenergic receptor (ADRA2C, Homo sapiens, UniProt P18825): 5%

Set 4 — organism: Vesicular stomatitis virus; effect on: pseudovirus infection; method: FDA-approved drug library screen; tested at: concentration not given; notes: VSV-G control pseudotype; baseline: vehicle; measurement: GFP-positive cells
CO[C@@H]1[C@@H](OC(N)=O)[C@@H](O)[C@H](Oc2ccc3c([O-])c(NC(=O)c4ccc(O)c(CC=C(C)C)c4)c(=O)oc3c2C)OC1(C)C.[Na+]: 118%
N.N.[Cl][Pt][Cl]: 101%
CNC(=C[N+](=O)[O-])NCCSCc1ccc(CN(C)C)o1: 97.5%

For quick reference, copied from above (set 1):
PTARRRLLHDADT [L11A]: 0.133
